Results of several laboratories.
“And” joins repeats or separate records; there may be more than shown. ± gives the spread as reported.

Structure (SMILES) | target or system | test | system | conditions | scale | measurement | value
O=C(O)CCCOc1ccc(F)cc1-c1cc(-c2ccccc2C(F)(F)F)n(-c2ccccc2)n1 |  |  | female Crl:CD(SD) rats, spleen | intravenous, 25 µg/kg, 1 d |  | relative organ weight | 0.22 ± 0.03 g%
Clc1ccc(-c2cc(Cl)c(Cl)c(Cl)c2)cc1 |  |  | polyethylene-water partitioning | PCB compilation | reference: maximum over minimum K | literature range factor | 1
C[C@]1(O)C[C@@](N)(c2ccc(-c3nc4n(c3-c3ccccc3)COc3ccncc3-4)cc2)C1 |  |  | human, advanced or metastatic solid tumours | once daily, dose escalation total |  | patients with grade ≥3 Fatigue TEAE | 11.1%
CN1CCN(c2ccc(Nc3nccc(-c4ccc5ccccc5c4)n3)cc2C(F)(F)F)CC1 |  |  | Danio rerio embryos | 5 µM, 5 d |  | toxicity | 100%
CC[C@H](C)[C@H](NC(=O)[C@H](Cc1ccccc1)NC(=O)[C@H](CCC(=O)O)NC(=O)[C@H](CCCNC(=N)N)NC(=O)[C@H](C)NC(=O)[C@H](C)NC(=O)[C@H](CCC(N)=O)NC(=O)[C@H](CCC(=O)O)NC(=O)[C@H](CCC(=O)O)NC(=O)[C@H](CC(C)C)NC(=O)[C@H](Cc1ccc(O)cc1)NC(=O)[C@H](CO)NC(=O)[C@H](CO)NC(=O)[C@@H](NC(=O)[C@H](CC(=O)O)NC(=O)[C@H](CO)NC(=O)[C@@H](NC(=O)[C@H](Cc1ccccc1)NC(=O)[C@@H](NC(=O)CNC(=O)[C@H](CCC(=O)O)NC(=O)[C@H](C)NC(=O)CCc1cnc[nH]1)[C@@H](C)O)[C@@H](C)O)C(C)C)C(=O)N[C@@H](C)C(=O)N[C@@H](Cc1c[nH]c2ccccc12)C(=O)N[C@@H](CC(C)C)C(=O)N[C@H](C(=O)N[C@@H](CCCNC(=N)N)C(=O)NCC(=O)N[C@@H](CCCNC(=N)N)C(=O)N[C@@H](CCCCNC(=O)COCCOCCNC(=O)COCCOCCNC(=O)CC[C@H](NC(=O)CCCCCCCCCCCCCCCCC(=O)O)C(=O)O)C(=O)NCC(=O)NCC(=O)N[C@@H](CO)C(=O)N[C@@H](CCSC)C(=O)N[C@H](C(=O)N[C@@H](CCCCNc1c(NCCCCCN(O)C(=O)CCC(=O)NCCCCCN(O)C(=O)CCC(=O)NCCCCCN(O)C(C)=O)c(=O)c1=O)C(=O)O)C(C)C)C(C)C [zirconium-89 labelled] |  | ex vivo gamma counting | male Sprague-Dawley rats, bone marrow | intravenous, 1 nmol, 24 h, mean of 3 animals |  | tissue uptake | 0.64 %ID/g
CO[C@H]1C[C@@H]2CC[C@@H](C)[C@@](O)(O2)C(=O)C(=O)N2CCCC[C@H]2C(=O)O[C@H]([C@H](C)C[C@@H]2CC[C@@H](OC(=O)NCCOCCOCCOCCOCCOCCOCCOCCOCCC(=O)N3CCc4cc(Cn5nc(-c6ccc7oc(N)nc7c6)c6c(N)ncnc65)ccc4C3)[C@H](OC)C2)C[C@@H](O)[C@H](C)/C=C(\C)[C@@H](O)[C@@H](OC)C(=O)[C@H](C)C[C@H](C)/C=C/C=C/C=C/1C |  |  | patients with advanced solid tumours | intravenous, 10 mg weekly, any grade |  | anaemia incidence | 0%
C[C@]1(CO)Cc2ncn(-c3ccc(C#N)c(Cl)c3)c2C(=O)O1 |  | investigator-assessed | human | 5 mg single dose |  | subjects with drug-related TEAEs | 0%
CN1CCC(=C2c3ccccc3CC(=O)c3sccc32)CC1 | Plasmodium falciparum |  | D10 |  |  | IC50 | 3980 nM
CC1(C)C(C=C(Cl)Cl)C1C(=O)OC(C#N)c1ccc(F)c(Oc2ccccc2)c1 (stereo not drawn) |  | refers to: CYP2C19 | human, age 5 years, recombinant human CYP2C19 | 0.1 µM |  | enzyme contribution to clearance | 0.6%
CC(C)C[C@@H]1NC(=O)CNC(=O)[C@H](CC(N)=O)NC(=O)[C@H](CCCNC(=N)N)NC(=O)[C@H]([C@@H](C)O)NC(=O)[C@@H]2CSSC[C@@H]3NC(=O)[C@H]([C@@H](C)O)NC(=O)CNC(=O)[C@H](CCCCN)NC(=O)[C@H](C(C)C)NC(=O)[C@@H]4CSSC[C@H](NC(=O)[C@H]([C@@H](C)O)NC(=O)[C@H](CSSC[C@H](NC(=O)[C@H](C(C)C)NC(=O)[C@@H]5CCCN5C1=O)C(=O)NCC(=O)N[C@@H](CCC(=O)O)C(=O)N[C@@H]([C@@H](C)O)C(=O)N4)NC(=O)CNC(=O)[C@@H]1CCCN1C(=O)[C@H]([C@@H](C)O)NC(=O)[C@H](CC(N)=O)NC3=O)C(=O)N[C@@H](CO)C(=O)N[C@@H](Cc1c[nH]c3ccccc13)C(=O)N1CCC[C@H]1C(=O)N[C@@H](C(C)C)C(=O)N2 |  | HPLC | water | 180 µM, 14 days, 37 °C, deamidation stability |  | remaining peptide | 97.1 ± 0.5%
CN1CC[C@@H](c2c(O)cc(O)c3c(=O)cc(-c4ccc(C(F)(F)F)cc4Cl)oc23)[C@@H]1CO |  | refers to: Anemia | relapsed B-cell malignancies or AML | oral, 50 mg, grade 3-4, continuous dosing |  | patients with adverse event | 25%
COc1cc2c(cc1OC)CN(CCc1ccc(NC(=O)c3cccc4c(=O)c5cccc(OC)c5[nH]c34)cc1)CC2 |  |  | CD-1 mouse, male, lung | intraperitoneal, 1 mg/kg |  | Tmax | 60 min
CCN(CCO)CCCC(C)Nc1ccnc2cc(Cl)ccc12 (stereo not drawn) |  |  | newly diagnosed glioblastoma patients | oral, 200 mg/dose, grade 1, with: radiotherapy and temozolomide |  | white cell decrease patients | 33%
Clc1ccc(Cl)c(-c2ccccc2Cl)c1 |  |  | fresh water | 20 °C, S100 sampler, 100 µm |  | log K(PDMS-water) | 4.98 ± 0.04
O=C(O)CCC(CP(=O)(O)O)C(=O)O (stereo not drawn) |  |  | rat, processed derivatized plasma | 0.3 µg/mL, 18 h, 10 °C, autosampler stability | reference: nominal concentration | relative error | 12.7%
COc1ccnc(C(=O)N[C@H]2COC(=O)[C@H](Cc3ccccc3)[C@@H](OC(=O)C(C)C)[C@H](C)OC2=O)c1OCOC(=O)C(C)C |  | aerobic dark soil incubation | clay soil | 20 °C, persistence endpoint |  | DT50 | 1.2 days
CC[C@H](C)[C@H](NC(=O)[C@H](CO)NC(=O)[C@H](CCCNC(=N)N)NC(C)=O)C(=O)N[C@H]1CSSC[C@@H](C(=O)N[C@H](C(N)=O)[C@@H](C)O)NC(=O)[C@H](CCCNC(=N)N)NC(=O)[C@H](Cc2c[nH]cn2)NC(=O)[C@H](Cc2cccc3ccccc23)NC(=O)CNC(=O)[C@H](Cc2c[nH]c3ccccc23)NC(=O)[C@H](CC(=O)O)NC(=O)[C@H](CCC(N)=O)NC(=O)[C@H](Cc2cccc3ccccc23)NC(=O)[C@H](C(C)C)NC1=O |  | isocratic RP-HPLC | C18 column | pH 7.4, 25 °C, elution method 2 | higher = more lipophilic | log retention factor | 0.85
Cc1cc(C)c(CNC(=O)c2cc(Cl)c3c(c2C)O[C@@](C)([C@H]2CC[C@H](N(C)C)CC2)O3)c(=O)[nH]1 |  |  | relapsed/refractory NHL patients | dose not given, trial, safety set, all TEAEs grade 5 |  | incidence of tumour lysis syndrome | 0%
CC[C@H](C)CCCCC(=O)N[C@@H](CCN)C(=O)N[C@H](C(=O)N[C@@H](CCN)C(=O)N[C@H]1CCNC(=O)[C@H]([C@@H](C)O)NC(=O)[C@H](CCN)NC(=O)[C@H](CCN)NC(=O)[C@H](CC(C)C)NC(=O)[C@@H](CC(C)C)NC(=O)[C@H](CCN)NC1=O)[C@@H](C)O |  | LC-MS/MS | Transwell insert membrane | time not given, methanol elution |  | total recovery | ~90%
COc1cccc(Oc2ccccc2NC(=O)CNC(=O)c2cccc3ccccc23)c1 |  |  | esterase-deficient SCID mice, male | oral, 40 mg/kg/day, 14 days, toxicity study |  | serum cholesterol | 93 mg/dL and 90 mg/dL and 88 mg/dL
NC(=O)[C@H]1CCN(c2ncnc(N)c2F)C[C@@H]1N1CCC[C@@H](Nc2cc(Cl)cc(C(F)(F)F)c2)C1=O |  |  | B-cell malignancy patients | oral, 20.5 mg twice daily, dose |  | grade ≥3 platelet decrease | 33%

Structure (SMILES) | target or system | test | system | conditions | scale | measurement | value
O=S(=O)(Nc1ccccc1)c1ccc(NC(=S)Nc2ccccc2)cc1 |  | refers to: TBIL | female mouse, blood | oral, 5 mg/kg daily, 14 days |  | blood chemistry level | 0.7 mg/dL
COc1cc(CC(=O)O)ccc1O | Plasmodium falciparum |  | W2 |  |  | IC50 | 316 nM
O=C1Nc2cc3[nH]nc(-c4ccncc4)c3cc2CN1Cc1ccccc1 |  | CTCAE v4.03 | advanced solid tumour patients | intravenous, 0.45 mg/kg, schedules 1/2 |  | patients with diarrhoea | 0%
Clc1ccc(-c2ccc(Cl)c(Cl)c2)cc1Cl |  |  | fresh water | 20 °C, S100 sampler, 100 µm |  | log K(PDMS-water) | 5.52 ± 0.03
CCc1ccc(CC/C=C/c2ccc3c(c2)C(=O)CC3)cc1 |  |  | Sprague-Dawley rat, male | oral, 450 mg/kg/day, 14 days |  | CHCM | 319 g/L
Clc1ccc(-c2ccccc2)cc1 |  |  | Sprague-Dawley rats, female, serum | inhalation, 23 µg/rat, 2 h after exposure |  | chloride | 76 ± 22 mmol/L
C[C@@H](O)[C@@H]1NC(=O)[C@H](CCCCN)NC(=O)[C@@H](Cc2c[nH]c3ccccc23)NC(=O)[C@H](Cc2ccccc2)NC(=O)[C@@H](NC(=O)[C@H](N)Cc2ccccc2)CSSC[C@@H](C(=O)N[C@H](CO)[C@@H](C)O)NC1=O |  | population PK model | human, typical 75 kg | dose not given, weight exponent 1 fixed |  | volume of distribution | 5.98 L
Cl.Cl.[2H]C([2H])(CN)SSC([2H])([2H])CN |  |  | C57BL/6J mouse, CDAA-HFD MASH model | oral gavage, 200 mg/kg once daily, 2 weeks |  | toxicity signs | not toxic
O[C@H]1CCCN[C@@H]1CCCn1cnc2c(Cl)c(Cl)ccc21 |  |  | healthy humans, plasma | oral, 150 mg twice daily |  | Cmax at steady state | 287 ng/mL
C[C@@H](NC(=O)N1C(=O)[C@H](Cc2ccnc(N)c2)[C@H]1C(=O)O)C1CCCCC1 |  |  | healthy Chinese adult volunteers | continuous intravenous infusion, dose not given, 5.0 days, CTCAE 5.0, all doses |  | administration site extravasation | 2.5%
CNC(=O)c1cc(Oc2ccc(NC(=O)Nc3cc(C(C)(C)C)nn3-c3ccc4ncccc4c3)c(F)c2)ccn1 |  | optic nerve disorder, NCI CTC v3.0 | human patients | oral, all dose levels |  | related SAE | 2%
Clc1ccc(Cl)c(-c2cc(Cl)ccc2Cl)c1 |  |  | PDMS-water partitioning | PCB compilation | reference: maximum over minimum K | literature range factor | 3
C[C@]12CC[C@H](n3ccnc3)CC1=CC[C@@H]1[C@@H]2CC[C@]2(C)C(n3cnc4ccccc43)=CC[C@@H]12.Cl.Cl |  |  | CD-1 mouse, male, plasma | intravenous, 1 mg/kg |  | t_half | ~180 min
N[C@@H]1c2ccccc2OC12CCN(c1cnc3c(N4CCCc5ncccc54)n[nH]c3n1)CC2 |  |  | patients advanced metastatic solid tumours | oral, 60 mg once daily, pooled cohort |  | decreased appetite TEAE incidence | 24%
COc1cc2c(Oc3ccc4[nH]c(C)cc4c3F)ccnc2cc1OCC1(N)CC1 |  |  | paediatric recurrent refractory sarcoma | concentration not given, whole group |  | grade 3 sinus arrhythmia | 0%
C=C(CN(C(=O)c1c(C(F)F)nn(C)c1F)C1CC1)c1ccc(Cl)cc1Cl |  | static acute toxicity test | zebrafish (Brachydanio rerio) | 0.482 mg a.i./L, 72 h |  | mortality | 0%
Cc1cccc(Cn2nc(C3CC3)c3c(NC(=O)c4cnc5cc(OCCN6CCN(C)CC6)ccn45)cccc32)n1 |  | CTCAE v4.03, refers to: AST increased | platinum-resistant ovarian cancer patients | oral, dose not given, with: pembrolizumab IV every 3 weeks |  | all-cause adverse events | 36.4%
COc1ccc(-c2c(-c3ccc(C#N)c(F)c3)nc(N3CCC(N)CC3)n(C)c2=O)cc1F |  | refers to: Leukopenia | relapsed/refractory marginal zone lymphoma patients | oral, 60 mg, grade 3 to 4, dose expansion |  | treatment-related adverse event incidence | 0%
COc1cc(N2CC[C@@]3(O)C(=O)c4cc(C)c(C)cc4N=C23)ccn1 |  | rotarod | mice | 10 mg/kg |  | motor learning and memory | no effect
CN[C@H]1CC[C@@H](c2ccc(Cl)c(Cl)c2)c2ccccc21 |  |  | CD-1 mouse, male, lung | intraperitoneal, 3 mg/kg |  | Tmax | 30 min
CC1(COc2ccc3c(c2)ncn3-c2ccc3cccc(N4CCC(N)CC4)c3n2)COC1 |  |  | human, recurrent HGG or DIPG | oral, 100 mg/m2 |  | lymphocyte count decrease grade | 0
